Published values gathered from unrelated publications.

Structure (SMILES)	test system	setting	Tmax [min]
Cc1ccc(OCC(=O)N(Cc2cccs2)c2ccn[nH]2)cc1	female Sprague-Dawley rat, plasma	oral, 30 mg/kg, single dose	18.6
CCCC[C@H](NC(=O)[C@H](CC(C)C)N(C)C(=O)CNC(=O)[C@@H](NC(=O)[C@H](Cc1ccccc1)NC(=O)[C@H](CCCCN)NC(=O)[C@@H](N)CC(=O)O)C(C)C)C(N)=O	female rat, plasma	subcutaneous, 300 µg/kg	3
Cn1cc(-c2cc(N3CCCCS3(=O)=O)ccc2N[C@H]2CC[C@H](C)CC2)c2cc[nH]c2c1=O (stereo in doubt)	Sprague-Dawley rat, plasma	oral, 3 mg/kg	30
CC12CC3CC(C)(C1)CC(NC(=O)Nc1ccc(C(=O)N4CCCC(C(N)=O)C4)cc1)(C3)C2 (stereo not shown)	Sprague-Dawley rat, plasma	oral, 10 mg/kg	126
CC(C)(C)C(=O)Nc1ccc2[nH]c(CN3CCC(N(CCCN4CCOCC4)CC4OC(n5cnc6c(N)ncnc65)C(O)C4O)CC3)nc2c1 (stereo not shown)	male Sprague-Dawley rat, plasma	intravenous, 20 mg/kg	4.98
C[Si]1(C[C@@H](CN)CC(=O)O)CCCC1	male Sprague-Dawley rat, plasma	oral, 100 mg/kg, single dose	60
CC1(C)CNC(=O)c2ccccc21	rat, plasma	oral, 5 mg/kg, single dose	30
NC(COc1ccccc1C(F)(F)F)c1ccccc1 (stereo not shown)	male Sprague-Dawley rat, serum	intravenous, 5 mg/kg	10.2
CCCN(c1ccc(C(=O)NCCC(=O)O)cc1)S(=O)(=O)c1cc(C)c(-c2ccc(C(C)(C)C)cc2)c(C)c1	rat, plasma	oral, 5 mg/kg	80
CC12CC3CC(C)(C1)CC(NC(=O)Nc1ccc(C(=O)N4CCC[C@H](C(N)=O)C4)cc1F)(C3)C2	Sprague-Dawley rat, plasma	oral, 50 mg/kg	38
CC1(C)CC[C@]2(C(=O)O[C@@H]3O[C@H](CO[C@@H]4O[C@H](CO)[C@@H](O)[C@H](O)[C@H]4O)[C@@H](O)[C@H](O)[C@H]3O)CC[C@]3(C)C(=CC[C@@H]4[C@@]5(C)CC[C@H](O[C@@H]6OC[C@H](O)[C@H](O)[C@H]6O)[C@@](C)(CO)[C@@H]5CC[C@]43C)[C@@H]2C1	Sprague-Dawley rat, plasma	oral, 150 mg/kg	25.2
CCc1c(Cl)cccc1N1CCN(C[C@H](F)CCNC(=O)c2cc3ccccc3[nH]2)CC1	male Long-Evans rat, plasma	oral, 10 mg/kg	30
Cc1cc(/C=C/C#N)cc(C)c1Oc1nc(NC2CCN(Cc3ccc(P(C)(C)=O)cc3)CC2)nc2ccsc12	male Sprague-Dawley rat, plasma	oral, 10 mg/kg	120
COc1cc2ncnc(Oc3ccc(Nc4nccc5[nH]cc(-c6ccc(F)cc6)c(=O)c45)cc3F)c2cc1OC	male Sprague-Dawley rat, plasma	oral, 10 mg/kg	120
C[Si](C)(C)C[C@@H](CN)CC(=O)O	male Sprague-Dawley rat, plasma	oral, 30 mg/kg, single dose	60
N#Cc1cnc2cc(OCC3CCNCC3)c(F)cc2c1Nc1cc(F)c(OCc2cccc(Cl)n2)cc1Cl	male Sprague-Dawley rat, plasma	oral, 300 mg/kg	180
Cc1cc(N2CCC(C#N)(C3(C)CC3)C2=O)cc(C(=O)NCc2cc(F)cc(-c3cnn(C)c3)c2)n1 (racemic)	male Sprague-Dawley rat, plasma	oral, 3 mg/kg	90
Nc1nc(Cl)nc2c1ncn2Cc1cc(OCC(F)F)cc(OC(F)F)c1	Sprague-Dawley rat, plasma	oral, 5 mg/kg	400
CNC(=O)N[C@]1(C)CCC[C@@]2(C)C3CC[C@@]4(C)C[C@]3(CCC21)CC4=O (single isomer, unassigned)	male Sprague-Dawley rat, plasma	oral, 2 mg/kg	19.2

For quick reference, copied from above:
Structure (SMILES)	test system	setting	Tmax [min]
CC1(C)CNC(=O)c2ccccc21	rat, plasma	oral, 5 mg/kg, single dose	30
